Assay results of several laboratories.
Each numbered part is a random draw from the data of one study; scales do not carry over between parts. Changes are numbered by the printed parent chain.

Block 1
Target: CCND2, cyclin fold, Cln2 fusion (human)
Method: yeast growth competition, sequencing
Matrix: yeast
Setting: weak parent motif
Baseline: not given
Reading: higher = stronger binding
Starting sequence: CDC25A docking peptide (human); PPHRRRLLFACSP; partner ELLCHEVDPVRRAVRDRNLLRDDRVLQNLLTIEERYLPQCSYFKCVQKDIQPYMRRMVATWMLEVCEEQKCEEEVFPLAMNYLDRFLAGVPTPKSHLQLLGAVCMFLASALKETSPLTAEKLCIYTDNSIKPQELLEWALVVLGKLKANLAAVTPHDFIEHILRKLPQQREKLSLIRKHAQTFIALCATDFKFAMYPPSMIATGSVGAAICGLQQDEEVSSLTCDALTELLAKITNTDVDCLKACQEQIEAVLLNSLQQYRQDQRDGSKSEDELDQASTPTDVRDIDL
Variant | normalised enrichment score
PPHRRWLLFACSP [R6W] | 0.789
PPHRRRLLQACSP [F9Q] | 0.23
MPHRRRLLFACSP [P1M] | 0.275
PPHRRRLLKACSP [F9K] | 0.0503
PGHRRRLLFACSP [P2G] | 0.25
PPIRRRLLFACSP [H3I] | 0.19
PPHRRRLLFACKP [S12K] | -0.0345
PYHRRRLLFACSP [P2Y] | 0.147
PPHRRRDLFACSP [L7D] | 0.0869
PPHRRRLLFANSP [C11N] | -0.147
PPMRRRLLFACSP [H3M] | -0.429
PPKRRRLLFACSP [H3K] | 0.0585
PPHWRRLLFACSP [R4W] | -0.223
PPHRRLLLFACSP [R6L] | 0.268
PPLRRRLLFACSP [H3L] | 0.178
PQHRRRLLFACSP [P2Q] | 0.473
PPHRRRLLFKCSP [A10K] | 0.0621
PPHRRRLDFACSP [L8D] | 0.308
PPHRTRLLFACSP [R5T] | -0.0787
PPHRRRLLFAWSP [C11W] | 0.0953
PPHRRRLLFACSY [P13Y] | 0.384
PPHRKRLLFACSP [R5K] | 0.301
PPHRRRPLFACSP [L7P] | -0.0567
PPHRRRLPFACSP [L8P] | -0.0714
PPHRRRLVFACSP [L8V] | 0.237

Block 2
Target: ABI1, truncated, D143A, DHFR fusion (Arabidopsis thaliana)
Method: DHFR PCA, deep sequencing
Matrix: yeast
Setting: methotrexate growth selection, single substitutions
Added: (+)-ABA 200 µM
Baseline: wild-type fitted maximum
Reading: higher = stronger binding
Starting sequence: PYL1, truncated, DHFR fusion (Arabidopsis thaliana); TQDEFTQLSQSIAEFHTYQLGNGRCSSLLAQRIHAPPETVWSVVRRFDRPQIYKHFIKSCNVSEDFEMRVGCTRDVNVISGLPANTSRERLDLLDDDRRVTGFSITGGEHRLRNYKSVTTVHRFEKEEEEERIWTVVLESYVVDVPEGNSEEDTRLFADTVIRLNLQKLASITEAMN; partner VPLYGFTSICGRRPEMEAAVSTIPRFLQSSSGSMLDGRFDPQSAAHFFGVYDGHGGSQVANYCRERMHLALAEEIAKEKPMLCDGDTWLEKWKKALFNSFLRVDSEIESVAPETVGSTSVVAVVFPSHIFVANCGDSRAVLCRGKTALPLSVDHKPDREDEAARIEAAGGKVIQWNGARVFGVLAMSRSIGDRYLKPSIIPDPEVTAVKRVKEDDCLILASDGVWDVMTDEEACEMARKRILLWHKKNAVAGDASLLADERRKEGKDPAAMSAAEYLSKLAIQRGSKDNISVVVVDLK
Variant | relative binding score
G71I | 2.73%
P50A | 35.6%
T135N | 7.65%
D3F | 92.2%
I162L | 71%
L8C | 90%
L169T | 2.68%
W134D | 95.8%
E151F | 90.8%
T106V | 108%
S117Y | 12.4%
Q31D | -0.0888%
R132S | 113%
S59W | 82.8%
R69T | 100%
A175W | 83.8%

Block 3
Target: Phosphate system positive regulatory protein PHO4, full length, GST-tagged (PHO4, Saccharomyces cerevisiae, UniProt P07270, residues 1-312)
Method: competition protein-binding microarray
Molecule type: double-stranded DNA, one strand shown
Matrix: in vitro
Tested at: 2 µM
Setting: whole 60-bp probe, lowest competitor level
Added: Cbf1 competitor, 0.05 µM
Reading: higher = stronger binding
Constant ends, left off below: … GTCTTGATTCGCTTGACGCTGCTG
Construct (chain): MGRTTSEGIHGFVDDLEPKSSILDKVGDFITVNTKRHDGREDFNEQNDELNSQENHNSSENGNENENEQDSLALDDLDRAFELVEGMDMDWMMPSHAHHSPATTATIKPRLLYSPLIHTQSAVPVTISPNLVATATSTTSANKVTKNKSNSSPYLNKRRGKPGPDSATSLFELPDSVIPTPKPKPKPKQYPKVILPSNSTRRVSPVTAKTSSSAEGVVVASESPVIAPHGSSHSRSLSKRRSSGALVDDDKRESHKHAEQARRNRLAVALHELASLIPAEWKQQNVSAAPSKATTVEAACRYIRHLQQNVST
Oligonucleotide | fluorescence intensity
CTTTCCCGATCTTGCCTTGTGGGTGTAGCACATTTG | 5100 a.u.
CATACCCAACCTTGCCGGGTGGGTGAAGATATTTGT | 4670 a.u.
ATTACCCTTGTTTTTCAATTGAAAACCCGGAACGAT | 3440 a.u.
CTTCTGTAAATTTGTTGAGTGGGTGGACGCGCCCCG | 4110 a.u.
TGCTGGCCAAACTGTGTCGTGGGACGCTGCTGTTGG | 5700 a.u.
GGAGGTAAGGACAAACTCGTGGAAGTGGCGATTAAT | 8170 a.u.
GAAACCTGAAACTGCCACGTGAAGACACCAGGGCTG | 15100 a.u.
GTCGGTCAACATCCGCACGATGTTCCGTTTTTCTTT | 11900 a.u.
AGAAAAAAACATGGCCACATGTAGTATCGACTGACA | 9900 a.u.
AGGCTCTTTTCCCGTCACGTAAGGTGTGGAAGTTAG | 5450 a.u.
AGATTAGTCTATTTGACCGTGCCGATTTTGCACTTT | 6110 a.u.
CCGGCCATTGCTTACCGCGTGCAAAATCCGTAACAT | 11500 a.u.
TGTTCTTATGGCTTGCATGTGCTCTGTATGTATATA | 12600 a.u.
CAACAAACAGTAGCTCGCGTGGCCGAATGGCAACGC | 7530 a.u.
CGTCCTAGCGATTGACCCGTGGGTGCCATGAGGAAG | 10600 a.u.
ATGAGATTGAAATCCTCCGTGATGGGCTCCGGAACT | 3440 a.u.
GTATGCACTTGAAACAACGTGTAGACCATCAATTGG | 11600 a.u.
AGCCAGGTTGCTTCACACGTGTTGGTGTACGTTAAG | 16700 a.u.
ATAGTGGTGAGCTGGCACGTTTCTCCACACCTAGTA | 13900 a.u.
CTGAACATCCTATTCCTCGTGGCCGAATGGTTACGG | 11200 a.u.
CATACCCAACCTTGAAATGTGGGTGAAGATATTTGT | 5660 a.u.
CTAACGAAGGTTTGTCACAAAACTTACAAGCCAAGT | 2970 a.u.

Block 4
Target: Hepatocyte nuclear factor 3-alpha (Foxa1, Mus musculus, UniProt P35582, residues 1-468, full length assumed)
UniProt P35582, sequence (whole entry, looked up): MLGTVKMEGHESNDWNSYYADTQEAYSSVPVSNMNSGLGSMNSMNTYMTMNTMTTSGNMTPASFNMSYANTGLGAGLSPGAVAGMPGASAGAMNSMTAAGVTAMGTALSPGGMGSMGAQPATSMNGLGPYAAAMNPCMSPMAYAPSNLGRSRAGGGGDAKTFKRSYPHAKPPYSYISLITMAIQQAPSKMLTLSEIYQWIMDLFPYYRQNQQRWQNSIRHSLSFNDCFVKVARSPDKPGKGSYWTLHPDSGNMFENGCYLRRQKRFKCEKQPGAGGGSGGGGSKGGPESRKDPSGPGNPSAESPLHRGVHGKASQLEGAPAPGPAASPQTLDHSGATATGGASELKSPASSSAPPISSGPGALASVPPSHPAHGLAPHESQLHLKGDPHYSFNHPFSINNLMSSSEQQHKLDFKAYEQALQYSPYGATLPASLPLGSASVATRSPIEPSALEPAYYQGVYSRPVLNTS
Method: EMSA with sequencing
Molecule type: double-stranded DNA, one strand shown
Matrix: in vitro
Tested at: 10 and 20 nM
Setting: whole designed probe, mean of two concentrations, ends assumed
Baseline: negative control set to 0
Reading: higher = stronger binding
Constant ends, left off below: GTGAGCGGTGCCCATTGATGGGGAAC … TTTCACTGGGATCGTGGGGAC
Oligonucleotide | normalised bound fraction [ratio]
TTACCACATTTCTTACATGCATAGGGTTTCTCTCCAGTATGAGTTCTTTCATGTTCACGAAGATAACTTGAATAATTGAAGGCTTTATCACAAAGATTACATTTATATGTTTTCTCTCCAGTGTAAGTGCTCTGAGGCATTTGAAATACACTAGGAAAATCAAAAGGCTTCTCATACACTGGACCCTTATAAG | -0.0289
AAAGTAATATAGCAGAATGACTTTTATTATAGATGATAATTTATGAAAAATGTAGCCAACGGAATTGATGTCAAACTTTTATCCACAAGTGCAAATTACTTTAGTATTGCTCACTATTTACCAAGGTTTGTTACAGCAGTAGTCACTATCTCAGTTGGCATTCGGCCAGATTATATTTTTTAAAGTGGCATTG | 0.0684
ATCTTCCCCCTCTTCCTTGCCCCACCAGCTCACCTTCCCGGGTTATTTGCAGATAGGAAAATAAATAAAGCCGGCATTCGTTAACCCTCTTCTGGCGCAAACTGCTGTTTGCTCTGGATGTGATCAGTCACTTTGGCGACGCCAGGCTCCGGGAGAGCAAAGCACCGTGTCAGGGCCATGATCCGGGGTGGCC | 0.354
TTAAGTTGGCAAAATTTAGGAAGCCAGATGATGCCAGATTTTGGCAGGACTTTGAGGATATTGGAACCATTACAGGTTCCTAACACTCAGCAATGTTTGCATAGGTTATGAGAGAACATGTAAGGAATTGTTTATTAAGGCATTATTTGAAGTGGCAATGAGTTGGAGGACATTCGCAAATCCATCACTGAGA | 0.441
CACATGTCAGTAATAGTGCTGTATTACTGACCTAGAAATTTAATTGTTCCGTGCTCTTAAGGTTTCAGTATTAAATGTGGAAATTATTTAAGAGCAAACAAATTGATATTACTGCAGCTTCATAAAGAAGAATATCAAACTGTGGTCTCTGTTTTTTGTCTTTCAAAGCAAGAAGTGGTGGAGAAATATGAAA | 0.142
TGTATAAAGCAATTTATTTTGGAAGAGTAGGCTGCTCTTGAATTGTTTTAAGTAATGGTGATATTTTAGGAAATAAGTGGCAAAGTCACAAAGTAATCTGGTCCACAGTACAACCTTGTCATTTCAATACAGTAACCTTATCTAGATATCGTATTCCACTAGTATTGCCAAATACGATATTTGAGGAATATCA | -0.0159
CTTACCCAGATTCAGCTGTTTGTCTTGATTAGGCATTCTCCTGTGGCTGTAAACTTTTGATGACATTCAAGAGCTCCAATGAAGTTGATTCTGTGTTTGCCCATTTACATACTGTTTTTGTGAAGGGATGGAGTTGTGGAGTTCCCTACTCCACTACCTTCACTGACATTACTTCGTTTAAGTCCTTCATAAG | 0.12
TCCTTTATCCCAACATGTTTATACAGACAAAACCAGGTTAAAATCGACACAAGGTCAACTTGAAATGGGGAAGAGGAAGGTAGACGTCACAAAATAAACATGAAGTCTTGTGTACAAGCATCTGCAGAAGAGTTCAGCCTCACCACTTGGGTAATGCTGTTGGAATGTGGTCTGGGTTCACTGTATTTGAATG | 0.379

Block 5
Target: TEF, bZIP domain (human)
Method: DHFR protein complementation
Matrix: yeast
Setting: single substitutions, most at no-binding floor
Baseline: wild-type JUN-FOS pair
Reading: higher = stronger binding
Starting sequence: JUN, bZIP domain (human); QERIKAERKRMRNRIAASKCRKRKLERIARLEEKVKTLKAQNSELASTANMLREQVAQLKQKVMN; partner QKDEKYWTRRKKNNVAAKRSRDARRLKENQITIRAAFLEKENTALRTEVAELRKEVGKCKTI
Variant | binding fitness
E44M | -1.5 natural log
L31H | -1.55 natural log
S47C | -1.39 natural log
Q41N | -1.42 natural log
K39M | -1.44 natural log
A29L | -1.48 natural log
E54K | -1.54 natural log
A46I | -1.39 natural log
E54N | -1.49 natural log
L38K | -1.44 natural log
A49R | -1.24 natural log
E44Q | -1.31 natural log
K36D | -1.37 natural log
L45K | -1.59 natural log

For quick reference, copied from above (block 2):
Variant | relative binding score
D3F | 92.2%
I162L | 71%
L8C | 90%
L169T | 2.68%
W134D | 95.8%
E151F | 90.8%
T106V | 108%
S117Y | 12.4%
Q31D | -0.0888%
R132S | 113%
S59W | 82.8%
